Measured values gathered from unrelated publications.
Parts stem from different laboratories: compare values within a part only.
Sequence of UniProt Q9Y4K4 (whole entry, looked up): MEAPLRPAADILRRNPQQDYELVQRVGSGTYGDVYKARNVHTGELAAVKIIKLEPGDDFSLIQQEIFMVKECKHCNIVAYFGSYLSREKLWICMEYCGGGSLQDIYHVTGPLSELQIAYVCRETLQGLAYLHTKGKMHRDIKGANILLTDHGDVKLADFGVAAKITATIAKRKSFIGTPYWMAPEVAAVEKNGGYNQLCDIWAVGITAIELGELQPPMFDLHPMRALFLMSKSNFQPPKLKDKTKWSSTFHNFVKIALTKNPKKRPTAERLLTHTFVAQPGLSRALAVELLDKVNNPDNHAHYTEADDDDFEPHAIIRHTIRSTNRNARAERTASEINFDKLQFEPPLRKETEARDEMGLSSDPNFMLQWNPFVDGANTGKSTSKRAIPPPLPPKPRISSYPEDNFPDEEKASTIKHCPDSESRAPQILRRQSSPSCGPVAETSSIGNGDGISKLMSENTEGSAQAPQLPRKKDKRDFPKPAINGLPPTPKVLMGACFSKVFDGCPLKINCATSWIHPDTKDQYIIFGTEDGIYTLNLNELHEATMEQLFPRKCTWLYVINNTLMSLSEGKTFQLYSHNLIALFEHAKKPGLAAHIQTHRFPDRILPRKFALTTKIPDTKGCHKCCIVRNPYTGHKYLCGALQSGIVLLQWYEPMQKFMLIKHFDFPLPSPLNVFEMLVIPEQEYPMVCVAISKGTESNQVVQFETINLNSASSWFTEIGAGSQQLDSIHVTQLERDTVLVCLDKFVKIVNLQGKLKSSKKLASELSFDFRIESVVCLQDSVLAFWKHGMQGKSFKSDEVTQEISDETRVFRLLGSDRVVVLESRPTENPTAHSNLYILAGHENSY
Sequence of UniProt P10721 (whole entry, unmodified, looked up): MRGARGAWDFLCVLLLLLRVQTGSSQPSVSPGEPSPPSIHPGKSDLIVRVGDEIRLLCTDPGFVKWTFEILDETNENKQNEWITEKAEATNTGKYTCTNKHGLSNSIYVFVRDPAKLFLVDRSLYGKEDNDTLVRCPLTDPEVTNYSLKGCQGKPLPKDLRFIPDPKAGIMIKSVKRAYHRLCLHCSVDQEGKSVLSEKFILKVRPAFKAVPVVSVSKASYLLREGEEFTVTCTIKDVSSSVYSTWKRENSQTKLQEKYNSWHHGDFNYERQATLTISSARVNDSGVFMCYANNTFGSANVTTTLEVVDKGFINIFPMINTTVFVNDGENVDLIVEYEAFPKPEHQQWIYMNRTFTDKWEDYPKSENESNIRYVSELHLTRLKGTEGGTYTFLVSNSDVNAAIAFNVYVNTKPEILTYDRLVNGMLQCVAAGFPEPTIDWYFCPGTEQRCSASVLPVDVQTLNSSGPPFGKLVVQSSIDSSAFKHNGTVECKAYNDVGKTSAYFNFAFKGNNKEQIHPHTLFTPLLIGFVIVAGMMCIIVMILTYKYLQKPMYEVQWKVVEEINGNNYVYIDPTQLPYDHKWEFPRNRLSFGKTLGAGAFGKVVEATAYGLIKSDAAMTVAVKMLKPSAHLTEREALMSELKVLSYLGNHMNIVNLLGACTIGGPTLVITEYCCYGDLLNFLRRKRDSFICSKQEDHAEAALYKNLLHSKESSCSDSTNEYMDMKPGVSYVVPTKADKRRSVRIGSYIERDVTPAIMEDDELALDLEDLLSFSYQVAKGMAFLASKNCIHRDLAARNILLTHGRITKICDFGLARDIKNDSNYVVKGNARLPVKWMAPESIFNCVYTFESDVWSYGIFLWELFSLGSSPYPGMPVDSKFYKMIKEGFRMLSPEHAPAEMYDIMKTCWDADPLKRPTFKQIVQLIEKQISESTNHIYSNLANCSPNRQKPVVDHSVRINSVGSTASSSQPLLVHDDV
Sequence of UniProt Q07912 (whole entry, looked up): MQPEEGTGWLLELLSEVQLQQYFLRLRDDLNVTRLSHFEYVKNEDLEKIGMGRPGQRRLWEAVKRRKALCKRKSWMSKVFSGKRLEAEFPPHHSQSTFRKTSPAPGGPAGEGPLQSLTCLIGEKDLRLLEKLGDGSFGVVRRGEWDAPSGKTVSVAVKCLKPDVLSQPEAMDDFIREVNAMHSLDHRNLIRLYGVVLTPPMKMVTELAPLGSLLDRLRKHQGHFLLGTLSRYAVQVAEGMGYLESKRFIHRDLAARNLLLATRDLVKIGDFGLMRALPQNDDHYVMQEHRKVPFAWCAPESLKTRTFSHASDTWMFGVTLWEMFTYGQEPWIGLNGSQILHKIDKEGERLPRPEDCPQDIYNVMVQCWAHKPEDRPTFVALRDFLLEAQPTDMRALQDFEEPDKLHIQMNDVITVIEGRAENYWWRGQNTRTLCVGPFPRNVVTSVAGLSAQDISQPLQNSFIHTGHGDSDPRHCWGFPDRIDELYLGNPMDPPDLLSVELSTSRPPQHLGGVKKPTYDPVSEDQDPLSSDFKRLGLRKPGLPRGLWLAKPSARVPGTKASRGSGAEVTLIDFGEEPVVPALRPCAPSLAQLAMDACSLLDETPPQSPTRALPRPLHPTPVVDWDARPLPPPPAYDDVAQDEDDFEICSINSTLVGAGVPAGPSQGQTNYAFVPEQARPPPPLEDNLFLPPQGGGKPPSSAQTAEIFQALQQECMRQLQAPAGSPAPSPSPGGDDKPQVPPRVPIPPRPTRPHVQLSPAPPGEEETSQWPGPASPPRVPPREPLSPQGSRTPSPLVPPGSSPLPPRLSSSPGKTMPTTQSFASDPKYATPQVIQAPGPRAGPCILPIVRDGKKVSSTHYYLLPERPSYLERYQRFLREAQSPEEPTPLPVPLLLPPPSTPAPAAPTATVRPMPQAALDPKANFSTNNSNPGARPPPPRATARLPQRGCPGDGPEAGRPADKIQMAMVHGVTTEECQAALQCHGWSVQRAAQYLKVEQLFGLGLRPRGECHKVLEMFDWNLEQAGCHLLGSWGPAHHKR
Sequence of UniProt Q86Z02 (whole entry, looked up): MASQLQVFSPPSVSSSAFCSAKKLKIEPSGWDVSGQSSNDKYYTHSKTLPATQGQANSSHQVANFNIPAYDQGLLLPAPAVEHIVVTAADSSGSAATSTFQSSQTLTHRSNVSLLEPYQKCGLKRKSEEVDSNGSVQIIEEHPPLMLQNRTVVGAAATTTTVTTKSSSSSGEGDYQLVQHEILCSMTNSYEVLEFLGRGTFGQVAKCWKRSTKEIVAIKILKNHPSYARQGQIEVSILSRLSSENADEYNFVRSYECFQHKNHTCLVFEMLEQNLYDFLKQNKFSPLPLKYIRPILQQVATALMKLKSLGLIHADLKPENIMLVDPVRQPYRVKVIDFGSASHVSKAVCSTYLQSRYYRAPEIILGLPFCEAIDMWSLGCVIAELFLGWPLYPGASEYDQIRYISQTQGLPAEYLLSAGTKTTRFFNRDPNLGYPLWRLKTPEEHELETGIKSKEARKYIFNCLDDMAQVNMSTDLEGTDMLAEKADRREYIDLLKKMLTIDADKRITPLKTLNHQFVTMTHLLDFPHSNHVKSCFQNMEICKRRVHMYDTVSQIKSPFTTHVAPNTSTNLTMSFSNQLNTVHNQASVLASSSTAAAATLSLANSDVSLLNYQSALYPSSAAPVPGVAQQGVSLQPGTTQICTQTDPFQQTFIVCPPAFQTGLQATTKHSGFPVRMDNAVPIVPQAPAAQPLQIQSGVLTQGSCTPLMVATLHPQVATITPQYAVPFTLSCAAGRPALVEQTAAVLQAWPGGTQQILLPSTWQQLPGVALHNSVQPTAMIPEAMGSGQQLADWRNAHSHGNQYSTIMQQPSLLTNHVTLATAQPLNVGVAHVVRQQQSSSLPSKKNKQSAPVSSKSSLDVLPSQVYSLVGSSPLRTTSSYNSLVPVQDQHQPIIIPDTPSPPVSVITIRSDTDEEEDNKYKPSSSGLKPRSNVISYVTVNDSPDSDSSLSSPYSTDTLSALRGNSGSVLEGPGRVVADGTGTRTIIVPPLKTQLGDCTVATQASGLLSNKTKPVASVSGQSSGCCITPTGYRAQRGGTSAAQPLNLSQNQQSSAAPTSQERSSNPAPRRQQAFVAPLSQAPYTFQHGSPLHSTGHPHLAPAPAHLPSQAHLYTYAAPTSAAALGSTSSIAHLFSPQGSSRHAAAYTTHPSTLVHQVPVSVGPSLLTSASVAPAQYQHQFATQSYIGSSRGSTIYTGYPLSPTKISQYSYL
Sequence of UniProt P54762 (whole entry, looked up): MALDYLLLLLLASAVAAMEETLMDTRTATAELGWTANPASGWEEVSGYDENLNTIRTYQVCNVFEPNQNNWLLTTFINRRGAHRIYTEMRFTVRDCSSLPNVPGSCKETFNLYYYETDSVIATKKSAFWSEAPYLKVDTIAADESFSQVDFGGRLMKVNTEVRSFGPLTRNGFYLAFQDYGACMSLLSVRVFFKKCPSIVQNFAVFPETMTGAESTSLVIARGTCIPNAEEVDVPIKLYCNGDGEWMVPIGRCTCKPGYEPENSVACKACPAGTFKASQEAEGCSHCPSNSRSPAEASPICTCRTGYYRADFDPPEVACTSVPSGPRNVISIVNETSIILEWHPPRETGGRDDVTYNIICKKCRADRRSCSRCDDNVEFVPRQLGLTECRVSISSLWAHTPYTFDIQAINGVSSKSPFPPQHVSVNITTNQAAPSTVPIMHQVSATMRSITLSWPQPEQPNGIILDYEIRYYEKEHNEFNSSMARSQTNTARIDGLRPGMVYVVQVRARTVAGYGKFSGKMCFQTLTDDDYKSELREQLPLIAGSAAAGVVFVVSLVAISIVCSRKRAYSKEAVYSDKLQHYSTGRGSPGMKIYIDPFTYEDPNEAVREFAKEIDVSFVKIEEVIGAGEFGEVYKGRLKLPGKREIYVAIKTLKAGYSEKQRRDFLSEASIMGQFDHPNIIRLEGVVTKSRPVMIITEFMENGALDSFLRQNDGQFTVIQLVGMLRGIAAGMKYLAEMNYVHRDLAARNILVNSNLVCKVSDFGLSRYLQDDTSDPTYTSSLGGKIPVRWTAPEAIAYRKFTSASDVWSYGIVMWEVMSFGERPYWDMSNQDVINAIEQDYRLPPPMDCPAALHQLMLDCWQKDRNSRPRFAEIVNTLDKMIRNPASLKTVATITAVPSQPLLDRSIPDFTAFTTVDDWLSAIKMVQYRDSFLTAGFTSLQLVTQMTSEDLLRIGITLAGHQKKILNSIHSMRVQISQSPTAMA

Sample 1
Cell line: Huh-7
Tested at: 10 µM
Time: 24 h
| SMILES | viability |
| --- | --- |
| CC(CN1c2ccccc2Sc2ccccc21)N(C)C (stereo not shown) | 97.2% |
| CO[C@H]1/C=C/O[C@@]2(C)Oc3c(C)c(O)c4c(O)c(c5c(nc6cc(C)ccn65)c4c3C2=O)NC(=O)/C(C)=C\C=C\[C@H](C)[C@H](O)[C@@H](C)[C@@H](O)[C@@H](C)[C@H](OC(C)=O)[C@@H]1C | 93.9% |
| O=c1[nH]c(=O)n([C@H]2C[C@H](O)[C@@H](CO)O2)cc1F | 54% |
| CC[C@@H](Cc1c(I)cc(I)c(N)c1I)C(=O)O | 101% |
| CN1CCN(C(c2ccccc2)c2ccccc2)CC1 | 101% |
| CN1CCN(CCCN2c3ccccc3Sc3ccc(C(F)(F)F)cc32)CC1 | 94.3% |
| CC1(C)S[C@@H]2[C@H](NC(=O)C(C(=O)O)c3ccccc3)C(=O)N2[C@H]1C(=O)O (stereo partly shown) | 100% |
| CCCCC1C(=O)N(c2ccccc2)N(c2ccc(O)cc2)C1=O (stereo not shown) | 84.9% |
| NCCNCCNCCN | 98.1% |
| CC(Oc1ccccc1)C(=O)N[C@@H]1C(=O)N2[C@@H]1SC(C)(C)[C@@H]2C(=O)O (stereo partly shown) | 104% |
| O=C(O)c1cc(/N=N/c2ccc(S(=O)(=O)Nc3ccccn3)cc2)ccc1O | 105% |
| O=P(O)(O)C(O)(Cc1cccnc1)P(=O)(O)O | 98.3% |

Sample 2
Target: Inhibitor of nuclear factor kappa-B kinase subunit epsilon (IKBKE, Homo sapiens, UniProt Q14164)
Observed: enzyme activity
Action: inhibitor
Tested at: 0.5 µM
Baseline: control
Target sequence (Q14164 1-716): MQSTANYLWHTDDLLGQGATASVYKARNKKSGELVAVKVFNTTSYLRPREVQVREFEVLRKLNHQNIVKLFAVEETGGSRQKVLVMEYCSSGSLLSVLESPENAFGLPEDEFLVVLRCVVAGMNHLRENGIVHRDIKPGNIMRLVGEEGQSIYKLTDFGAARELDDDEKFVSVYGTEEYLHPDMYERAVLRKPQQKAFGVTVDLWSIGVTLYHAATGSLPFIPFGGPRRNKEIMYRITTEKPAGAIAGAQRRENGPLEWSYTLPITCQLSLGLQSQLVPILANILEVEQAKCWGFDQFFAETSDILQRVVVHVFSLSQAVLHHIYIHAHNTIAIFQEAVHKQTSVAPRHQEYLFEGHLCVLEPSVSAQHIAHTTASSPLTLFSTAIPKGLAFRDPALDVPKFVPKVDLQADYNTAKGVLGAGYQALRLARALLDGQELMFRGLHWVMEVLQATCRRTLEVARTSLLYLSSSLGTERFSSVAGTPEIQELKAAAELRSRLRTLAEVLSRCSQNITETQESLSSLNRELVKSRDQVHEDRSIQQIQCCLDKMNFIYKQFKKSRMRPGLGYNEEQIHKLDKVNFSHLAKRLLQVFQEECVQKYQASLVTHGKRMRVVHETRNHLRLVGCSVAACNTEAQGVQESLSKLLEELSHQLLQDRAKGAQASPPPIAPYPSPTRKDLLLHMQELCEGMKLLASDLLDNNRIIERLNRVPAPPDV
| SMILES | remaining activity [%] |
| --- | --- |
| Nc1ncnc2n[nH]c(Nc3ccc(F)cc3)c12 | 100 |
| N#CC(C#N)=C(N)/C(C#N)=C/c1ccc(O)cc1 | 91 |
| O=C(Nc1cccc(Nc2cc(Nc3cccc(C(F)(F)F)c3)ncn2)c1)C1CC1 | 97.7 |
| Cn1c2ccccc2c2c3c(c4c5ccccc5n(CCC#N)c4c21)CNC3=O | 69.4 |
| Nc1[nH]nc2nc3ccccc3nc12 | 99.4 |
| COc1cc2nccc(Oc3ccc(NC(=S)NC(=O)c4ccccc4C)cc3)c2cc1OC | 96.2 |
| Oc1ccc(-c2nc(-c3ccncc3)c(-c3ccc(F)cc3)[nH]2)cc1 | 101 |
| O=C(O)c1ccc2c3c1cccc3c(=O)n1c3ccccc3nc21 | 57.3 |
| O=C(CCCc1ccc(-c2ccccc2F)cc1)Nc1ccc(O)cc1 | 98.2 |
| CCOC(=O)c1c(C)[nH]c(/C=C2\C(=O)Nc3ccccc32)c1C | 93.5 |
| COc1ccc(C(=O)Nc2sc3c(c2C(N)=O)CCCC3)cc1OC | 106 |
| Cc1ccc(NC(=O)c2ccc(CN3CCN(C)CC3)cc2)cc1Nc1nc(-c2cccnc2)cs1 | 97.2 |
| Cc1ccc(Nc2nccc(N(C)c3ccc4c(C)n(C)nc4c3)n2)cc1S(N)(=O)=O | 87 |
| CO[C@H]1C[C@@H]2CC[C@@H](C)[C@@](O)(O2)C(=O)C(=O)N2CCCC[C@H]2C(=O)O[C@H]([C@H](C)C[C@@H]2CC[C@@H](O)[C@H](OC)C2)CC(=O)[C@H](C)/C=C(\C)[C@@H](O)[C@@H](OC)C(=O)[C@H](C)C[C@H](C)/C=C/C=C/C=C/1C | 99.4 |
| Nc1ccc2ncnc(NCCc3ccc(Oc4ccccc4)cc3)c2c1 | 95.6 |

Sample 3
Host: human
Medium: microsomes or S9
Tested at: 2 µM
Time: 0.5 h
| Structure (SMILES) | remaining compound [%] |
| --- | --- |
| O=c1[nH]c2ccccc2c(O)c1-c1ccc(F)cc1 | > 100 |
| CC1=C(Br)C(=O)N(C(C)(C(N)=O)C(C)C)C1=O (stereo not shown) | 99.6 |
| Nc1cccc(Nc2nc(-c3ccc(Cl)cc3)cs2)c1 | 17.4 |
| Cc1nn(C)cc1-c1nn(-c2ccccc2)c(-c2cn(C)nc2C)c1C | 74 |
| O=C(COc1ccccc1)NCCn1cc(-c2ccncc2)c(-c2ccccc2F)n1 | 5.06 |
| c1ccc(N(c2ccccc2)c2nc(N3CCOCC3)nc(N3CCOCC3)n2)cc1 | 36.7 |
| C[C@@H](NC(=O)c1ccc(F)cc1)[C@H](O)c1ccccc1 | 87 |
| Nc1cc(S(=O)(=O)c2ccc(Nc3ccccc3)c(N)c2)ccc1Nc1ccccc1 | 72.8 |
| CC1CCC(NS(=O)(=O)CC(=O)NC(C)CCc2ccc(Br)cc2)CC1 (stereo not shown) | 6.51 |
| OCC(O)Cn1c(-c2ccc(F)cc2)nc2ccccc21 (stereo not shown) | 87.7 |
| COC(=O)c1nc(N2CCN(C(=O)c3ccco3)CC2)c2scc(-c3ccc(C(=O)O)cc3)c2n1 | > 100 |
| Cc1ccc(Nc2nc(-c3sc(C)nc3C)cs2)nc1 | 0.49 |
| CC1CCC(NS(=O)(=O)CC(=O)Nc2cc(-c3ccsc3)nn2C)CC1 (stereo not shown) | 26.2 |

Sample 4
Compound: NS(=O)(=O)c1cc(NC(=O)Cc2ccccc2)ccc1Oc1cccc(Cl)c1
Observed: cell-free assay
Technique: competition with immobilised ligand
Tested at: 1 µM
| target | remaining binding [%] |
| --- | --- |
| Ephrin type-B receptor 1 (EPHB1, Homo sapiens, UniProt P54762) | 93 |
| Homeodomain-interacting protein kinase 1 (HIPK1, Homo sapiens, UniProt Q86Z02) | 80 |
| Tyrosine-protein kinase ABL1, non-phosphorylated (ABL1, Homo sapiens, UniProt P00519, H396P) | 97 |
| Mitogen-activated protein kinase kinase kinase kinase 5 (MAP4K5, Homo sapiens, UniProt Q9Y4K4) | 72 |
| Rho-associated protein kinase 1 (ROCK1, Homo sapiens, UniProt Q13464) | 88 |
| Epithelial discoidin domain-containing receptor 1 (DDR1, Homo sapiens, UniProt Q08345) | 94 |
| Mast/stem cell growth factor receptor Kit (KIT, Homo sapiens, UniProt P10721, A829P) | 74 |
| Non-receptor tyrosine-protein kinase TNK1 (TNK1, Homo sapiens, UniProt Q13470) | 74 |
| Activated CDC42 kinase 1 (TNK2, Homo sapiens, UniProt Q07912) | 79 |

Excerpt of the above (sample 3):
| Structure (SMILES) | remaining compound [%] |
| --- | --- |
| CC1=C(Br)C(=O)N(C(C)(C(N)=O)C(C)C)C1=O (stereo not shown) | 99.6 |
| Nc1cccc(Nc2nc(-c3ccc(Cl)cc3)cs2)c1 | 17.4 |
| Cc1nn(C)cc1-c1nn(-c2ccccc2)c(-c2cn(C)nc2C)c1C | 74 |
| O=C(COc1ccccc1)NCCn1cc(-c2ccncc2)c(-c2ccccc2F)n1 | 5.06 |
| c1ccc(N(c2ccccc2)c2nc(N3CCOCC3)nc(N3CCOCC3)n2)cc1 | 36.7 |
| C[C@@H](NC(=O)c1ccc(F)cc1)[C@H](O)c1ccccc1 | 87 |
| Nc1cc(S(=O)(=O)c2ccc(Nc3ccccc3)c(N)c2)ccc1Nc1ccccc1 | 72.8 |
| CC1CCC(NS(=O)(=O)CC(=O)NC(C)CCc2ccc(Br)cc2)CC1 (stereo not shown) | 6.51 |
